# Measured values gathered from unrelated publications.
# Each numbered part is a random draw from the data of one study; scales do not carry over between parts. Substitutions count along the parent as printed.

# Study 1 — technique: RNA Bind-n-Seq; form: RNA; medium: in vitro; tested at: 365 nM; reference: no-protein control; direction: higher = stronger binding
# Target: RNA binding protein fox-1 homolog 2, RRM domain, GST-SBP tag (RBFOX2, Homo sapiens, UniProt O43251-10, residues 100-194)
# Setting: natural RNA segment, single round, ends assumed
# Residues (chain): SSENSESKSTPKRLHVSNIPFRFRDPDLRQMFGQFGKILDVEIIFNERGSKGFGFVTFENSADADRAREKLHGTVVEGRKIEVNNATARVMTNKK
Strand,RBNS enrichment (R)
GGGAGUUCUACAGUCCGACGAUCGGAUUUGCUCUGAGUCUCCGGUGCAUCAUUUAAUCUGUUAGGUUCUAGUGUUCCGUCUUGUUUUGUGUUAAUUACAGCAUUGUGCUAAUGUAAAGACUCUGCCUUUGCGAUGGAAUUCUCGGGUGCCAA,0.992
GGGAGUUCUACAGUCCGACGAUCUUGAGAAAAGGUUGUAGGAUGUGUCACAAGAGACUUUUGACAAUUCUGAGGAACCUUGUGUCCAGUUGUUACAAAGUUUAAGCUUUGAACCUAACCUGCAUCCCAUUUCCUGGAAUUCUCGGGUGCCAA,0.305
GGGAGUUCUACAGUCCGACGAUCCUUUGGAGAGUAUUUUAGAAACUCCAAUGAAAGACACUGUUUCUCCUGUUGGCUCACAGGGCUGAAAGGGGCUUUUGUCCUCCUGGGUCAGGGAGAACGCGGGGACCCCAUGGAAUUCUCGGGUGCCAA,0.278
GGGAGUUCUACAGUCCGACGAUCCCCUCGUUCUCGGUCCUGCCUGGAACCUUUGUACGCUUUGCUCAAAAAUCAGCGAGCCUUCGCAUUUGAUGCCAAGUUUUUGUUACAGAUUAAUUUUUCCAUAAAACCAUUGGAAUUCUCGGGUGCCAA,0.309
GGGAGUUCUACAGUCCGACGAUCACUUAUACCCUUGUAAAACUUGUCAUCUAUGCAAUAAAGCAGUUGAUUUUUCUGUGGAUGCCAUGGAGUUCUGUUUGCCUUUGUUGUUUUUGUUGUUGCUGUUUUAUUUUUGGAAUUCUCGGGUGCCAA,0.487
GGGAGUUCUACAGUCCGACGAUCUAUUACAGAUUAUACGAGUGUACUGCUUUAAAGAUAUUCCAUCAUUUUGCUGGUAAUUUCAGUAACUGUUUUCAGCAAGAAUAUUACAUGAGCUCUAAAGUUAUUAAGCAUGGAAUUCUCGGGUGCCAA,0.56
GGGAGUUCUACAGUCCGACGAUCGAGGCCUGUAAUAAUCACCAACUGCCUGAUCACUCUGGCCAUCAUUGGGGCCUGAGGAACAACUUUUGCAGGGUGUAUGUACAGUAGAAGGAGACAGAAGAGUUCUGAUGUGGAAUUCUCGGGUGCCAA,0.68
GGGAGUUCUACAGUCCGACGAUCCCCUUCCUGGCCCAAGAGAGCAUCCAGAAGGCAGUAGGACCUGGUUUUUCAGGUACUGGGAGCCGGGGGCUCACUGCUUGCACUGUGCUUAGGGUAGGGAUGGUAAAUAUUGGAAUUCUCGGGUGCCAA,0.503
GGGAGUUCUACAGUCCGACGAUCCAGGAAAAGAAUCUCUGUGCUCUAAAUCUCGGUCAGAGCUGUGGCCUCCCCCUUGCCUUUAACCUCUAGUUUAGUCUUUUCCUCCAGGCAUGAAAAAUAUGACUAACCUGUGGAAUUCUCGGGUGCCAA,0.825
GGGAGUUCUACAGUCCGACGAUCUGUGCUUGUUCCAAAUGAGCAGCUGGCAUCCGAGUGGUGUCCUGUGUGGGCUGAUAGUUGAUCACACAUUGUGCUUUUGAUUUUUGCAUUUGGUGAUGAAUAUUUUAUACUGGAAUUCUCGGGUGCCAA,0.531
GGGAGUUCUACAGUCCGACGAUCCAGGACAGAGGUAGUGGCGGCCCCCAUGCCGCCCUCCUUGAGCUGGUGAGGAGAAGUCGCCAUUGAGCACACAACCUCCACCAGACUGCCAUGGCCCCGAACCUGCAAUUUGGAAUUCUCGGGUGCCAA,0.258
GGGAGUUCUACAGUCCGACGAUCAACUUUGCUUUCAGUUUCUUGGUAAGCAACAGCUGUCUGGCAAUGCUCAAGGAAUCCACAUCUGGUGGGUAGGAGAAGAGAGACCCUGUUGCUAUAGUACAGAGACAAGUUGGAAUUCUCGGGUGCCAA,0.669

# Study 2 — technique: protein-binding microarray; form: double-stranded DNA, one strand shown; medium: in vitro; tested at: 2200 nM top; setting: 60-bp whole probe; together with: salmon DNA 0.4 mg/ml; reference: random background probes; direction: higher = stronger binding; shared flanks, not repeated: GCCTAGCAC … GTCTTGATTCGCTTGACGCTGCTG
# Target: Interferon regulatory factor 7, full length, phosphomimetic (IRF7, Homo sapiens, UniProt Q92985, residues 1-503, S471D/S472D/S475D/S476D/S477D/S483D/S484D/S487D)
# Target sequence (chain): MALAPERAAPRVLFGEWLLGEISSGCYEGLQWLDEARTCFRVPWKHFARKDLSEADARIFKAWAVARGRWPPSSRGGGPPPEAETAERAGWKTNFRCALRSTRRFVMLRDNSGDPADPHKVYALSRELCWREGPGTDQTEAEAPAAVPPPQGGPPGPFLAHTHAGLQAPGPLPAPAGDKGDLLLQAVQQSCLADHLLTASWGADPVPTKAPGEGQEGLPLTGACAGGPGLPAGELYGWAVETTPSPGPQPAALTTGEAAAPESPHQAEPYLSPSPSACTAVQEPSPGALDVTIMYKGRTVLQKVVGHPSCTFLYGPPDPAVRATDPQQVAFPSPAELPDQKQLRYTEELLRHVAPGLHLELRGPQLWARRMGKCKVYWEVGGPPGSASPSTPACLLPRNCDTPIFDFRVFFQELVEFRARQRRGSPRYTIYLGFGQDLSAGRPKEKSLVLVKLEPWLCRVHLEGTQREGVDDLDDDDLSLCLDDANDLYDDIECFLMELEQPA
Strand,fitted relative affinity
TTAGGTTCCGGTTTCTGTTAGTGCTAG,5.22 z-score
TCAGTTTCGTATCTTCATTGTGTGCTA,7.96 z-score
GACGATCCCAGTATCGAGACGTGCTAG,0.459 z-score
TTAGATATCGGATTTCGATTAGTGCTA,1.48 z-score
GACGGTCTCCTTTTCCGGACGTGCTAG,1.38 z-score
CTTTCTATCTCTGTTTTTGCGTGCTAG,3.55 z-score
GACGGTATCGGTTCCGGGACGTGCTAG,1.17 z-score
TTAGGTCTCCCTCTCCTTTAGTGCTAG,0.741 z-score
TTGGGACTGGGACTGGGTTAGTGCTAG,-0.913 z-score
TTAGGACTGGACTATCGGTTCGTGCTA,0.451 z-score
GACTGACTGGACTATCGGGACGTGCTA,-0.242 z-score
ATTAGTATGTTCACTATTTAAGTGCTA,0.497 z-score
GACGATTTGGGGTTTCGAGACGTGCTA,1.95 z-score
GACGGACTGGACTCTCGGGACGTGCTA,-0.803 z-score
TTAGGTTTCGGGTTTCGGTTAGTGCTA,11.2 z-score
TATTTTTTTCTAATTGAAATGTGCTAG,1.43 z-score
CTTAGTATTTTTTTCCAGAGGTGCTAG,1.02 z-score
GACGGTAGCGGTCTCGGGACGTGCTAG,-0.739 z-score
TCCATTTTCAGAATTTACTTGTGCTAG,2.62 z-score
CTAGGACTGGACACTGGGTTAGTGCTA,-0.839 z-score
TTAGATATCGGGTATTGATTAGTGCTA,0.148 z-score
TTAGGGCTCCTTCTCCTTTAGTGCTAG,0.219 z-score
TTAGCTATCAGTATCGATTAGTGCTAG,0.57 z-score
GAAGGTATCCTTCTCCTGACGTGCTAG,0.665 z-score

# Study 3 — technique: DHFR PCA, deep sequencing; medium: yeast; together with: (+)-ABA 710 µM; reference: wild-type fitted maximum; direction: higher = stronger binding
# Target: ABI1, truncated, D143A, DHFR fusion (Arabidopsis thaliana)
# Setting: methotrexate growth selection, single substitutions
# Starting sequence: PYL1, truncated, DHFR fusion (Arabidopsis thaliana); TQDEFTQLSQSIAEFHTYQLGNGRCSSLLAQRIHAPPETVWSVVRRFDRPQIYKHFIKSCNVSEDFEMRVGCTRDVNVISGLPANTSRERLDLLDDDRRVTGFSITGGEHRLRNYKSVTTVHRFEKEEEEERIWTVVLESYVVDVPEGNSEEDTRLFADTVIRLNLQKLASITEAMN; partner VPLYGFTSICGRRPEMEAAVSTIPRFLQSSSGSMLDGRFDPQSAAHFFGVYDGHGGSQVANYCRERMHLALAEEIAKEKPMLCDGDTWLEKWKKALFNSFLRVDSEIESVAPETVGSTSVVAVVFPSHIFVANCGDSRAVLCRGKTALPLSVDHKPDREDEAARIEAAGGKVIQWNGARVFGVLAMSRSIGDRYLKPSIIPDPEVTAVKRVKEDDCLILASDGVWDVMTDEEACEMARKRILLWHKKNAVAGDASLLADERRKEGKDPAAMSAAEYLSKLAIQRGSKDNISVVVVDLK
Substitution,relative binding score [%]
A158W,-2.35
T73A,89.8
P83T,32.3
V137A,71.6
T106Q,106
P50W,-16
T6S,109
V78G,9.15
I172L,101
I33K,-28.6
K126D,109

# Study 4 — technique: EMSA with sequencing; form: double-stranded DNA, one strand shown; medium: in vitro; tested at: 10 and 20 nM; reference: negative control set to 0; direction: higher = stronger binding
# Target: Hepatocyte nuclear factor 3-alpha (Foxa1, Mus musculus, UniProt P35582, residues 1-468, full length assumed)
# Chain of UniProt P35582 (whole entry, looked up): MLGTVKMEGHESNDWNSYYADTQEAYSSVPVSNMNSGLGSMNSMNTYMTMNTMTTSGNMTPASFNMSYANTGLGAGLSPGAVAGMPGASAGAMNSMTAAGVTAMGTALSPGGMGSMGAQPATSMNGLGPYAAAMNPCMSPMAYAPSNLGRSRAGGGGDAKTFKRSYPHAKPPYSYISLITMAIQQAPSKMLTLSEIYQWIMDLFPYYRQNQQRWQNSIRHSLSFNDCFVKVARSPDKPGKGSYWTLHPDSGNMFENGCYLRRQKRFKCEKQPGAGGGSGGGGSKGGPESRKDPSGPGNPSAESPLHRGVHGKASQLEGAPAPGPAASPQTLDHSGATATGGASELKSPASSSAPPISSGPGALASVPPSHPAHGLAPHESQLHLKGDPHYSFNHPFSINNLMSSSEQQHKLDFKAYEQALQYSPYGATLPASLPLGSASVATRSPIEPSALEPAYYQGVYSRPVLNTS
# Setting: whole designed probe, mean of two concentrations, ends assumed
Strand,normalised bound fraction [ratio]
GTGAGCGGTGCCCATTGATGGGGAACCCCTGATTGCTATGTTCTAGAAAGTTTTAACCGAAAGTACCAGCTTTACATGTGTATGTGAATCAAACATGTAAACATCCACCTCTCTTTGTGTAATCTAGGAAAAATGGCAAAATATTTTCAGAGAATTTTTCTCTCCCATTTAAGTTTGAAGTTTCAACAAGCATATTATACTTTGAGAGAGAAAAGCAAATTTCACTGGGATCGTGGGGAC,0.131
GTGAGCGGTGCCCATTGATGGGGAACAGATAAAGAATAAGACCTAATATATTTCATATTGTCCTTGAAGGTGAGGAGAGAGGAAATGGAGTGGAGCCATTGTTTTAAGGATGAATATGGGTAAACATTTTCTGGAACTGATACATGACTGTGTGAGAAGAAAAACTGAGTCATTGTGCCTTGGTGACAATCAATCCATCTCCCATGTTTCAGACAACCTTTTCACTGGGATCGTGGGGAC,0.0496
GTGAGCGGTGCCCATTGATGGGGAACGCATGAGCCGCATTGCCCAGCAAAAGCCTCTAAGTGGTGATTTGCTGTTTGGCCTGAGAGTAATTTGGAGGCTGTGGCTGAGTCAGCTTCTCTAGATGACTGAGCTGATGTCACTTTTGACCTTCATTGTTCCATAATTCCTTATGAAACTCTTCTGAAGCACTGAGAACCATCGACGGATCATATCAGCATGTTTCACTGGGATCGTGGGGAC,-0.0551
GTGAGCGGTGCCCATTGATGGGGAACATCTTCCCCCTCTTCCTTGCCCCACCAGCTCACCTACGGGGGTTATTTGCACAAAGGAAAATAAATAAAGCCGGCATTCGTTAACGCAGTTCACGCGCATACTGCTGTTTGCTCTGCATCTAACATGGTCCTTACGCGACGCCAGGCTCCGGGAGAGCAAAGCACCGTGTCAGGCGCATGATCCGGGCTCGCCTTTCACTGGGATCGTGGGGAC,0.402
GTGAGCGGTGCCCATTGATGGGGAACGTGAGGTCCTGAGGCCCAGGGAAGGGCCCAGGGAGCTCCAGGGACAGTGGAGAGAGGCAGAGACGGGCAGTGCTGGAGATAGAACAGTAAGAGTAATCTGGGATGGATAAACAGGGGCTGAGGGGTAAAGTCCAGAAAGGCCCAGCCAAAACCAGCAACCAAGTGGCCTCCAGTTACCCGGTAAGCACTTAGATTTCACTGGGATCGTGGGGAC,-0.0204
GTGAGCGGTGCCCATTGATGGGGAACTGCCATGGGCCTTCATTTCCAGGCTTCCAGGCTCACCAGCTCAGGAAGAGGATTTTGCTAAGCAGTGGATATATACACAAAGGCAGGGCCAATGCAAATAAGAAATTCCTGGTCCACAAATAAACATTTCTTAAGCAACCCACACAATGAAATGGATGATAGCGTTTTCTACCCGAACTTTTCTCTAATTACATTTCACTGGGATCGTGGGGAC,0.339
